Results from different studies.
Every numbered part comes from another study and shows a few of its results, in no order.
UniProt Q8TDX7, sequence (whole entry, looked up): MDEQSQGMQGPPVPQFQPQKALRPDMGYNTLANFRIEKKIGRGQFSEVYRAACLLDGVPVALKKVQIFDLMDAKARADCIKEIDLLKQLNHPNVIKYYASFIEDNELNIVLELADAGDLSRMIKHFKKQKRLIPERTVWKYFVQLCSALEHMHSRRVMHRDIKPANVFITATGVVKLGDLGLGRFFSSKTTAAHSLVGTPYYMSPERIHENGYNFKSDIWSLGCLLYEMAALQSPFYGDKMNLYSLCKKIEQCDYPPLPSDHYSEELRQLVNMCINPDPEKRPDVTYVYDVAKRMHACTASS
UniProt P35968, sequence (whole entry, looked up): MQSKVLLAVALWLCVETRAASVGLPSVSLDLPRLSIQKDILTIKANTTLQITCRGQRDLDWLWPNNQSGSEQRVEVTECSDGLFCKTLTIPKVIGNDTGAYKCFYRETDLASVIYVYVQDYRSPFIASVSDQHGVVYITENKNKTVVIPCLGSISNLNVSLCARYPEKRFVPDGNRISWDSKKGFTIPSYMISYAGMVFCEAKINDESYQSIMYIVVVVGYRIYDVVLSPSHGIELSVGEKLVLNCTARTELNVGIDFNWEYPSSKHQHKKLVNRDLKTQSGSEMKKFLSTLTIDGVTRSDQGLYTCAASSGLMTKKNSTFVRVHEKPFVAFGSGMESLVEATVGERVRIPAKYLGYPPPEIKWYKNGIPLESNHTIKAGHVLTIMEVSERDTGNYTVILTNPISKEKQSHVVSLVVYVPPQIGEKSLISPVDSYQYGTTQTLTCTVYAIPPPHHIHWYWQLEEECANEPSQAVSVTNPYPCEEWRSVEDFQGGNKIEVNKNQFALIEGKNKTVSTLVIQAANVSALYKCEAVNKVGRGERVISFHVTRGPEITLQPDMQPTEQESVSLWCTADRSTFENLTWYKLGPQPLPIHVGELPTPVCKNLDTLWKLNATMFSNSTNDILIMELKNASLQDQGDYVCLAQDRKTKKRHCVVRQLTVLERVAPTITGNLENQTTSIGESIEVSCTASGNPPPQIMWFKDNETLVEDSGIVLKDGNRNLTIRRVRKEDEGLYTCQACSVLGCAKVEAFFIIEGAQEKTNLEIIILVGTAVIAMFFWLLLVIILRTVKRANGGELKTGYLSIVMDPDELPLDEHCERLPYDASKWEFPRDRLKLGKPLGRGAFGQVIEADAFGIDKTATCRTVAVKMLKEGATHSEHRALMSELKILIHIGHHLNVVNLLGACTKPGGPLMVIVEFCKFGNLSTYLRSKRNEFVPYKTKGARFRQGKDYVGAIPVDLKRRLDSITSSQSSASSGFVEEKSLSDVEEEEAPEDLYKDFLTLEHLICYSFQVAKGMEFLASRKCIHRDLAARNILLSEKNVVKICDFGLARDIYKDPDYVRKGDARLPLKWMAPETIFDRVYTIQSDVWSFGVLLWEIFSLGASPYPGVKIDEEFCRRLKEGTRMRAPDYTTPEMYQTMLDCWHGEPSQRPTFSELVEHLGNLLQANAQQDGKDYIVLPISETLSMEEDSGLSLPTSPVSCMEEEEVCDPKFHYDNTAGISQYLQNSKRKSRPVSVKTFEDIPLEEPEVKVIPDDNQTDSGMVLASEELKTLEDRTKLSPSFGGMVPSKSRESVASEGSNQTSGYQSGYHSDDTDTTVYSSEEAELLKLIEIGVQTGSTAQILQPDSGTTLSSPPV
UniProt P07333, sequence (whole entry, looked up): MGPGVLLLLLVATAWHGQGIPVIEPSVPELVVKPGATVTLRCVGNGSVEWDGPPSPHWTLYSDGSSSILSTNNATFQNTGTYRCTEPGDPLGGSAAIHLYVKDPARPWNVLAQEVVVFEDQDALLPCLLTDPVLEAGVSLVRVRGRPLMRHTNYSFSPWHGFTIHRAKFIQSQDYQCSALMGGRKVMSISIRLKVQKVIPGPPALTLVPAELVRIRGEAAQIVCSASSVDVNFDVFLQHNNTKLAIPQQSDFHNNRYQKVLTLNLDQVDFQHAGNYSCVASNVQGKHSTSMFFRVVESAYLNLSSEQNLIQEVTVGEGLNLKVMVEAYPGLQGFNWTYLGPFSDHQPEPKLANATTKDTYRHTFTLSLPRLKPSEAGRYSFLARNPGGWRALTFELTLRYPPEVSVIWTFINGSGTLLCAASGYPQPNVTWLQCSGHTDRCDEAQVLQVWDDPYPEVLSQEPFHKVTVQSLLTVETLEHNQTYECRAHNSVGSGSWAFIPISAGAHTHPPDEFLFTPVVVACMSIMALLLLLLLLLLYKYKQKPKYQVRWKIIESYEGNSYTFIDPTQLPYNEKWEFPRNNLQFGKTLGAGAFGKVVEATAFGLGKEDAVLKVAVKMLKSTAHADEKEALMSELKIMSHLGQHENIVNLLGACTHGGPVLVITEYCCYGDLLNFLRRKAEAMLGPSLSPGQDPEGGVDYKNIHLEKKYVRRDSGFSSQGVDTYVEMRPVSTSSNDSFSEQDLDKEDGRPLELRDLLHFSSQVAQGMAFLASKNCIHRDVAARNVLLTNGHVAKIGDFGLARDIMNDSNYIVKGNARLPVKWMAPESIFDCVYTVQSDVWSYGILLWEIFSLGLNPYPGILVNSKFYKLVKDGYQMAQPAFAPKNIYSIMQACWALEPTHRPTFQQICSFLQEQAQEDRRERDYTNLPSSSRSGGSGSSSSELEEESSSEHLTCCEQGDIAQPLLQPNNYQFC
UniProt Q13153, sequence (whole entry, looked up): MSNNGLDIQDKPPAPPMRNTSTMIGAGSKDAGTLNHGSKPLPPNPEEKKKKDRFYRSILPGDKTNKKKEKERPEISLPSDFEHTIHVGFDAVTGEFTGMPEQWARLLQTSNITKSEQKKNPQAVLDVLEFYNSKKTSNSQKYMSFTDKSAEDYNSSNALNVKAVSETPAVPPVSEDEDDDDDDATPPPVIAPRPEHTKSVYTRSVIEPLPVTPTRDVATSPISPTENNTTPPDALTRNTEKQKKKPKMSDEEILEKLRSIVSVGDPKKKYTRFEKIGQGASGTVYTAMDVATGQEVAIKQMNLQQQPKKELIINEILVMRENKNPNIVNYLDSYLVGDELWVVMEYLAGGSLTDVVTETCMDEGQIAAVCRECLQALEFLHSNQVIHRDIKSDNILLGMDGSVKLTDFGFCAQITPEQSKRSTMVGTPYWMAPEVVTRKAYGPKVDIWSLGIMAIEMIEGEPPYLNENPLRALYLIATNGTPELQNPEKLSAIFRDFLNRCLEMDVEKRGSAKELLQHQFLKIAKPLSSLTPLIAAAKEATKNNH
UniProt Q6XUX3, sequence (whole entry, looked up): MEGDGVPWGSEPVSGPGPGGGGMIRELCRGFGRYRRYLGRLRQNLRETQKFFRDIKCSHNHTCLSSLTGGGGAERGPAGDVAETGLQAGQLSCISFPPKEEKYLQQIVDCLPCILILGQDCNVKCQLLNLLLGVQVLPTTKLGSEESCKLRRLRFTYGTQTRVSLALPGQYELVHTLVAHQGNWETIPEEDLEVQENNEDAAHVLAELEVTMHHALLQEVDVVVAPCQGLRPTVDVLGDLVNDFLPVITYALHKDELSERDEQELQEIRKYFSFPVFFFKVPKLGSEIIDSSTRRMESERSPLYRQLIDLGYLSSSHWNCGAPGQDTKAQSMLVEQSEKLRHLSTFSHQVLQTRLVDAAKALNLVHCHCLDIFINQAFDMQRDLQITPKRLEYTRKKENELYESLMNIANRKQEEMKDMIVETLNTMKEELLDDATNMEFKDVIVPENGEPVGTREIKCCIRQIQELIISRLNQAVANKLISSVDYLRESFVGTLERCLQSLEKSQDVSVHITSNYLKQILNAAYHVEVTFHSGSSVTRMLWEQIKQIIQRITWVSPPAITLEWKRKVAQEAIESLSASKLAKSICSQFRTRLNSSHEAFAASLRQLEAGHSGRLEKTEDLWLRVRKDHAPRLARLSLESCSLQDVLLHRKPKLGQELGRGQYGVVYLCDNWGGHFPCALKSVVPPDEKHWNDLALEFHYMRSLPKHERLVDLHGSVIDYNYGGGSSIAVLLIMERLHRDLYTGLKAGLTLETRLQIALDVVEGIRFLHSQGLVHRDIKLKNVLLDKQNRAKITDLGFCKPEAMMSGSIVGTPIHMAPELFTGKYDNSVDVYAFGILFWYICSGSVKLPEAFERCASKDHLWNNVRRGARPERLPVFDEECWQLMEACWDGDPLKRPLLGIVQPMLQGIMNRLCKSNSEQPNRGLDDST

Sample 1 — organism: Plasmodium berghei; cell line: Huh-7; strain: liver stage; concentration: 10 µM; time: 24 h; reference: control
| Compound | parasite load [%] |
| --- | --- |
| COc1ccc(CCN2CCC(Nc3nc4ccccc4n3Cc3ccc(F)cc3)CC2)cc1 | 22.1 |
| Clc1ccc(COC(Cn2ccnc2)c2ccc(Cl)cc2Cl)c(Cl)c1 (stereo not drawn) | 54.6 |
| CN(C)CCC=C1c2ccccc2COc2ccccc21 | 98.5 |
| O=C(O)c1cn(C2CC2)c2cc(N3CCNCC3)c(F)cc2c1=O | 98.4 |
| CC(=O)CC(c1ccccc1)c1c(O)c2ccccc2oc1=O (stereo not drawn) | 105 |
| OC(Cn1cncn1)(Cn1cncn1)c1ccc(F)cc1F | 85.1 |
| CN1[C@@H]2CC[C@H]1C[C@@H](OC(=O)C(CO)c1ccccc1)C2 (stereo partly drawn) | 119 |
| O=c1ccc2ccccc2[nH]1 | 5.6 |
| CN(C)C(=O)Oc1ccc[n+](C)c1 | 86.1 |
| Nc1nc2ccc(OC(F)(F)F)cc2s1 | 107 |
| CC1=C(C(=O)O)N2C(=O)[C@@H](NC(=O)[C@H](N)c3ccccc3)[C@H]2SC1 | 108 |
| COC(=O)C1=C(C)NC(C)=C(C(=O)OC)C1c1ccccc1[N+](=O)[O-] | 106 |

Sample 2 — read-out: enzyme activity; mode: inhibitor; concentration: 0.5 µM; reference: control
Target: Megakaryocyte-associated tyrosine-protein kinase (MATK, Homo sapiens, UniProt P42679)
Residues (P42679 1-507): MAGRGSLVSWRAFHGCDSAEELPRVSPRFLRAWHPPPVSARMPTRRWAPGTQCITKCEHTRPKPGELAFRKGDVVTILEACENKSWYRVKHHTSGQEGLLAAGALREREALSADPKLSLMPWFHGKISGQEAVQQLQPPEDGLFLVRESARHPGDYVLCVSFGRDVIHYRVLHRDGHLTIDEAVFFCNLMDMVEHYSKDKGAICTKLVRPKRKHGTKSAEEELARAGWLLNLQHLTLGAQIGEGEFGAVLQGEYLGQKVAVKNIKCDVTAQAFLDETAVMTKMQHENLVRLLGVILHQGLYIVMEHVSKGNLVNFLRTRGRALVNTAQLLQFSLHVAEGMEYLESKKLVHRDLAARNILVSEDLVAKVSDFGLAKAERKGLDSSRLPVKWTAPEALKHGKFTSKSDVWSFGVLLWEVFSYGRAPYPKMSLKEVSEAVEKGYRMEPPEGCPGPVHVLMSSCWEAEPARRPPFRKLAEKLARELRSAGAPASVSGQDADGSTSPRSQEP
| Structure (SMILES) | remaining activity [%] |
| --- | --- |
| CN(C)S(=O)(=O)c1ccc2c(c1)/C(=C/c1cc3c([nH]1)CCCC3)C(=O)N2 | 104 |
| O=Nc1c(-c2c(O)[nH]c3cc(Br)ccc23)[nH]c2ccccc12 | 99.6 |
| O=C1Cc2c([nH]c3ccc(Br)cc23)-c2ccccc2N1 | 93.6 |
| c1ccc2c(-c3ccncc3)c[nH]c2c1 | 93.9 |
| O=C1Nc2ccc(Br)cc2/C1=C/c1cc2c([nH]1)CCCC2 | 94.2 |
| c1ccc(-c2n[nH]c3c2oc2ccccc23)cc1 | 94 |
| Cc1ccc(S(=O)(=O)/C=C/C#N)cc1 | 101 |
| CCCCc1c(-c2ccc(OC)cc2)[nH]c2nccnc12 | 101 |
| COc1ccc2c(c1)c(C1=C(c3c[nH]c4ccccc34)C(=O)NC1=O)cn2CCCN(C)C | 99.3 |
| COc1cccc(-c2cc(=O)c3ccccc3o2)c1N | 88.6 |
| CCCNC(=O)Nc1ccc(Oc2ncnc3cc(OC)c(OC)cc23)cc1Cl | 96.8 |
| Cc1cc(Nc2cc(N3CCN(C)CC3)nc(Sc3ccc(NC(=O)C4CC4)cc3)n2)[nH]n1 | 78.7 |
| N#Cc1cnc2cnc(NCc3cccnc3)cc2c1Nc1ccc(F)c(Cl)c1 | 95.9 |
| O=C1NC(=O)c2c1c1c3ccccc3[nH]c1c1[nH]c3cc(Br)ccc3c21 | 97.3 |
| O=C1NC(=O)c2c1c1c3ccccc3[nH]c1n1cncc21 | 99.8 |
| O=C(c1cc2cc(O)ccc2[nH]1)c1cc2cc(O)ccc2[nH]1 | 93.3 |
| O=C1Nc2ccccc2/C1=C\c1c(Cl)[nH]c2ccccc12 | 89.5 |
| O=c1cc(N2CCOCC2)oc2c(-c3ccccc3)cccc12 | 84.6 |
| Oc1cccc(-c2nc(N3CCOCC3)c3oc4ncccc4c3n2)c1 | 86.7 |
| CN1CCN(c2ccc3nc(-c4c(N)c5c(F)cccc5[nH]c4=O)[nH]c3c2)CC1 | 74.9 |

Sample 3 — concentration: 1 µM
Compound: CN(C(=O)c1ccccc1)c1cc(N(C)c2ccc3c(c2)CCc2ccc(C(=O)NCCN4CCOCC4)cc2C3=O)ccc1F
| target | read-out | technique | remaining binding |
| --- | --- | --- | --- |
| SIK1 (Homo sapiens, UniProt P57059) |  | competition binding | 100% |
| KDR (Homo sapiens, UniProt P35968) | cell-free assay | competition with immobilised ligand | 81% |
| CAMK2D (Homo sapiens, UniProt Q13557) | cell-free assay | competition with immobilised ligand | 100% |
| CAMKK2 (Homo sapiens, UniProt Q96RR4) | cell-free assay | competition with immobilised ligand | 92% |
| TNNI3K (Homo sapiens, UniProt Q59H18) | cell-free assay | competition with immobilised ligand | 54% |
| EIF2AK2 (Homo sapiens, UniProt P19525) | cell-free assay | competition with immobilised ligand | 53% |
| ACVR2A (Homo sapiens, UniProt P27037) | cell-free assay | competition with immobilised ligand | 100% |
| NEK7 (Homo sapiens, UniProt Q8TDX7) | cell-free assay | competition with immobilised ligand | 91% |
| DSTYK (Homo sapiens, UniProt Q6XUX3) | cell-free assay | competition with immobilised ligand | 83% |
| Tyrosine-protein kinase ABL1, phosphorylated (ABL1, Homo sapiens, UniProt P00519, Y253F) | cell-free assay | competition with immobilised ligand | 100% |
| Macrophage colony-stimulating factor 1 receptor, autoinhibited (CSF1R, Homo sapiens, UniProt P07333) | cell-free assay | competition with immobilised ligand | 100% |
| PAK1 (Homo sapiens, UniProt Q13153) | cell-free assay | competition with immobilised ligand | 88% |
| STK39 (Homo sapiens, UniProt Q9UEW8) | cell-free assay | competition with immobilised ligand | 100% |
| FLT3 (Homo sapiens, UniProt P36888, ITD) | cell-free assay | competition with immobilised ligand | 84% |
| KIT (Homo sapiens, UniProt P10721, D816H) | cell-free assay | competition with immobilised ligand | 100% |
| FLT3 (Homo sapiens, UniProt P36888) | cell-free assay | competition with immobilised ligand | 86% |

Sample 4 — organism: Sarcocystis neurona; read-out: parasite activity; concentration: 10 µM; time: 96 h
| Compound | activity class |
| --- | --- |
| CC(=O)OCC(=O)[C@@]12OC3(CCCC3)O[C@@H]1C[C@H]1[C@@H]3CCC4=CC(=O)C=C[C@]4(C)[C@@]3(F)[C@@H](O)C[C@@]12C | inactive |
| CC(=O)CCCCn1c(=O)c2c(ncn2C)n(C)c1=O | inactive |
| CN(CCCN1c2ccccc2CCc2ccccc21)CC(=O)c1ccc(Cl)cc1 | inactive |
| CCOC(=O)N1CCC(=C2c3ccc(Cl)cc3CCc3cccnc32)CC1 | inactive |
| CC1=C(/C=C/C(C)=C/C=C/C(C)=C\C(=O)O)C(C)(C)CCC1 | inactive |
| Nc1nc2c(ncn2CCC(CO)CO)c(=O)[nH]1 | inactive |
| [H]/N=C(/NCCCCC)N/N=C/c1c[nH]c2ccc(OC)cc12 | active |
| O=C(O)CCNC(=O)c1ccc(/N=N/c2ccc(O)c(C(=O)O)c2)cc1 | inactive |
| CC[C@]1(O)C[C@H]2CN(CCc3c([nH]c4ccccc34)[C@@](C(=O)OC)(c3cc4c(cc3OC)N(C=O)[C@H]3[C@@](O)(C(=O)OC)[C@H](OC(C)=O)[C@]5(CC)C=CCN6CC[C@]43[C@@H]65)C2)C1 | inactive |
| CC(C)NCC(O)c1cc(O)cc(O)c1 (stereo not drawn) | inactive |
| C[N+]1(C)CCCC(OC(=O)C(O)(c2ccccc2)c2ccccc2)C1 (stereo not drawn) | inactive |
| C/C(=C\C(=O)OCCCCCCCCC(=O)O)C[C@@H]1OC[C@H](C[C@@H]2O[C@H]2[C@@H](C)[C@H](C)O)[C@@H](O)[C@H]1O | inactive |
| CC(C)[N+]1(C)[C@@H]2CC[C@H]1C[C@@H](OC(=O)C(CO)c1ccccc1)C2 (stereo partly drawn) | inactive |
| CC(C)(C)NCC(O)c1cc(O)cc(O)c1 (stereo not drawn) | inactive |
| O=C(O)c1cc(-c2ccc(F)cc2F)ccc1O | inactive |

Some of these lines once more (sample 3):
| target | read-out | technique | remaining binding |
| --- | --- | --- | --- |
| Tyrosine-protein kinase ABL1, phosphorylated (ABL1, Homo sapiens, UniProt P00519, Y253F) | cell-free assay | competition with immobilised ligand | 100% |
| CAMKK2 (Homo sapiens, UniProt Q96RR4) | cell-free assay | competition with immobilised ligand | 92% |
| DSTYK (Homo sapiens, UniProt Q6XUX3) | cell-free assay | competition with immobilised ligand | 83% |
| ACVR2A (Homo sapiens, UniProt P27037) | cell-free assay | competition with immobilised ligand | 100% |
| TNNI3K (Homo sapiens, UniProt Q59H18) | cell-free assay | competition with immobilised ligand | 54% |
| STK39 (Homo sapiens, UniProt Q9UEW8) | cell-free assay | competition with immobilised ligand | 100% |
| Macrophage colony-stimulating factor 1 receptor, autoinhibited (CSF1R, Homo sapiens, UniProt P07333) | cell-free assay | competition with immobilised ligand | 100% |
| FLT3 (Homo sapiens, UniProt P36888) | cell-free assay | competition with immobilised ligand | 86% |
